# Assay results of several laboratories.
# Lines come from different studies, so protocols differ. ± marks the error that the study gave.
Substance,test,test system,conditions,scale,quantity,value
CCN1C(=O)CNc2ncc(-c3ccc(-c4nc[nH]n4)nc3C)nc21,,"human, plasma","oral, 25 mg once daily, first dose",,AUC(0-12h),1230 ng·h/mL
5(6)-carboxytetramethylrhodamine,,water,"0.5 µM, with: L-tryptophan 50 mM",baseline: no tryptophan,fluorescence decrease,4 fold
CN(C)C(=O)c1cc2cnc(Nc3ccc(N4CCNCC4)cn3)nc2n1C1CCCC1,,"human, plasma","oral, 600 mg daily for 14 days, day of surgery",,unbound plasma concentration,490 nM
Cc1cc(C)c2c(c1)[C@@H](N(Cc1cc(C(F)(F)F)cc(C(F)(F)F)c1)c1nnn(C)n1)CCCN2C[C@H]1CC[C@H](C(=O)O)CC1,,"human, plasma","oral, 10 mg once daily, steady state, geometric mean",,Vss/F,543 L
C=CC(N)CCC(=O)O (centres unmarked),,"male Sprague-Dawley rat, plasma","oral, 1.0 mg/kg, formulation 6, with: BCH 200 mg/kg",,AUC(0-inf),1840 ± 68 ng·h/mL
Clc1ccccc1C(c1ccccc1)(c1ccccc1)n1ccnc1,equilibrium dialysis,500 nM CYP26A1 in buffer,"1 µM, 12 h, pH 7.4, spectral binding conditions",,unbound fraction,0.025 ± 0.001
COCCOC(=O)C1=C(C)NC(C)=C(C(=O)OC(C)C)C1c1cccc([N+](=O)[O-])c1 (centres unmarked),,"male Sprague-Dawley rat, plasma","oral, 12 mg/kg, with: pravastatin 1 mg/kg",,oral bioavailability,31.1%
NC(=O)CC[C@@H]1NC(=O)[C@H](Cc2ccccc2)NC(=O)[C@H](Cc2ccc(O)cc2)NC(=O)CCSSC[C@@H](C(=O)N2CCC[C@H]2C(=O)N[C@H](CCCN=C(N)N)C(=O)NCC(N)=O)NC(=O)[C@H](CC(N)=O)NC1=O,UPLC-MS/MS,human plasma,"156.23 pg/mL, three cycles",,freeze-thaw stability,91.1%
O=C1Nc2ccccc2C(=NO)CCc2ccccc21,nephelometry,aqueous buffer,"30 min, pH 6.5",,kinetic solubility,> 100 µg/mL
Cc1nc(-c2ccc(OCC(C)C)c(C#N)c2)sc1C(=O)O,,"adults with gout, plasma","oral, 80 mg, with: verinurad 5 mg",,AUC(0-24),5190 ng·h/mL
N#C[C@]1(CO)O[C@@H](n2cnc3c(=O)[nH]c(N)nc32)C[C@@H]1O,,"male Sprague-Dawley rat, plasma","oral, 1 mg/kg, with: entecavir 1 mg/kg",,t1/2,1.18 ± 0.33 h
COc1cnc(NS(=O)(=O)c2ccc(N)cc2)nc1,,PBS,"2 h, pH 7.4, 25 °C",,kinetic solubility,361 µM
CC(C)NCC1CCc2cc(CO)c([N+](=O)[O-])cc2N1 (centres unmarked),,mouse liver microsomes,"1 µM, pH 7.4",,unbound intrinsic clearance,241 µL/min/mg
C/C=C/C[C@@H](C)C(=O)[C@H]1C(=O)N[C@@H](C(C)C)C(=O)N(C)CC(=O)N(C)[C@@H](CC(C)C)C(=O)N[C@@H](C(C)C)C(=O)N(C)[C@@H](CC(C)C)C(=O)N[C@@H](C)C(=O)N[C@H](C)C(=O)N(C)[C@@H](CC(C)C)C(=O)N(C)[C@@H](CC(C)C)C(=O)N(C)[C@@H](C(C)C)C(=O)N1C,,"Sprague Dawley rat, plasma","intravenous infusion, 0.9 mg/h/kg, 4 h, minimal efficacious dose",,free steady-state plasma concentration,245 nM
C[C@]1(c2nc3c(C(N)=O)cccc3[nH]2)CCCN1,,"human patients, plasma","oral, 40 mg, day -2, cycle 1",,AUC(0-12h),1760 ng·h/mL
C[C@]1(C(=O)O)CSC(c2ccc(OCCCCCCO)cc2O)=N1,,"male Sprague-Dawley rats, urine","oral, 384 µmol/kg/day for 10 days",,urinary Kim-1 excretion,< 20 ng/kg/24 h
N=C(N)NCCC[C@H](NCC(=O)[C@@H](O)[C@H](O)[C@H](O)CO)C(=O)O,,"C57BL/6J mouse, plasma","intraperitoneal, 40 mM, 2.5 µL/g, extrapolated to 0 min",,C0,292000 nM
CCS(=O)(=O)Nc1ccc(Oc2ccc(F)cc2F)c(-c2cn(C)c(=O)c3[nH]ccc23)c1,,"Sprague-Dawley rat, plasma","oral vs intravenous, 3 mg/kg oral, 1 mg/kg i.v.",,oral bioavailability,57%
CCc1oc2ccc(OC)cc2c1C(=O)c1cc(Br)c(O)c(Br)c1,,"Sprague-Dawley rat, intestine microsomes","1 µM, pH 7.4, with: NADPH",,intrinsic clearance,6.5 ± 1.4 µL/min/mg
C[C@@H](O)[C@H](N)C(=O)O,,octanol/phosphate buffer,"pH 7.0, N-4-nitrobenzoyl amino acid derivatives",baseline: glycine derivative,Π (relative logD),0.07 ± 0.01
C[C@@H]1O[C@@H](OC[C@H]2O[C@@H](Oc3c(-c4ccc(O)c(O)c4)oc4cc(O)cc(O)c4c3=O)[C@H](O)[C@@H](O)[C@@H]2O)[C@H](O)[C@H](O)[C@H]1O,UPLC-MS/MS,"Wistar rat, microcirculation dysfunction model, plasma","oral, 100 mg/kg Salvia miltiorrhiza stem-leaf extract FT",,MRT(0-t),7.32 ± 0.77 h
Cc1cc(C(=O)NC(C)(C)COc2cccc3c2C(N)=NS(=O)(=O)N3)cc(C)n1,,"Sprague-Dawley rat, both sexes, plasma","oral, suspension in 1% methylcellulose",,oral bioavailability,0.15 to 0.43%
CO/N=C1\C[C@]2(C[C@@H]3C[C@@H](C/C=C(\C)C[C@@H](C)/C=C/C=C4\CO[C@@H]5[C@H](O)C(C)=C[C@@H](C(=O)O3)[C@]45O)O2)O[C@H](/C(C)=C/C(C)C)[C@H]1C,"HPLC, non-compartmental","Corriedale lambs, parasitized, plasma","subcutaneous, 0.2 mg/kg, with: closantel 5 mg/kg subcutaneous",,elimination half-life,103 h
O=C([O-])CN(CC(=O)[O-])CC(=O)[O-].[Fe+3],square wave voltammetry,metal chelate,"concentration not given, pH 7.4, anaerobic",,reduction potential vs NHE,464 mV
C=CC(=O)Nc1cc(Nc2ncc(C(=O)OC(C)C)c(-c3cn(C)c4ccccc34)n2)c(OC)cc1N(C)CCN(C)C,,"human, fasted","oral, 40 mg single dose, geometric mean",,AUC(0-t),155 ng·h/mL
Cn1c(-c2ccc(C(N)=O)cc2F)nnc1C(C)(C)Oc1c(F)cc(Cl)cc1F,,"young Japanese subjects, plasma","oral, 50 mg single dose, day 1",,AUC(0-inf) mean,7880 ng·h/mL
CCCCC(=O)N(Cc1ccc(-c2ccccc2-c2nnn[nH]2)cc1)[C@H](C(=O)O)C(C)C,,"male human, plasma","oral, 400 mg, day 7, alone, adjusted geometric mean",,AUCtau at steady state,30800 ng·h/mL
Cc1cc(-c2cc(OC(=O)c3ccccc3)ccc2Cl)cc2nnc(Nc3ccc(OCCN4CCCC4)cc3)nc12,,"Long Evans rat, sclera/choroid","topical, 1%",,AUC(0-24 h),13.1 µM·h
CCCOc1ccc([C@H]2CNC(=O)N2c2ccc3[nH]cnc3c2)cc1,,"human volunteers fasted, plasma","oral solution, 30 mg single dose, day 1, geometric mean",,AUC(0-12h),171 ng·h/mL
C=CC(=C)CCC1(C)C(C)CC(O)C23C(=CC(OC(=O)/C=C/C=C/CCCCC)CC12)C(OC(C)=O)OC3OC(C)=O (centres unmarked),haemolysis,,20 µM,,haemolysis,2%
CC(=O)Nc1ccc(O)cc1,glutathione conjugation,rat liver S9,"100 µM, 2 h, pH 7.4, with: glutathione 0.2 mM",,parent remaining,43%
Cc1c2c(n(-c3ccc(F)cc3Cl)c1-c1ccc(OS(=O)(=O)CCC(F)(F)F)cc1)CCN(N1CCCCC1)C2=O,,"cynomolgus monkey 4, plasma","intravenous infusion, 0.2 mg/kg, 90 min, PET study midpoint",,plasma concentration,84 nM
CCCCCCCCCCCCCNCC(=O)N(CC(=O)N(CCCCN)CC(=O)N(CCN)CC(=O)N(CC(N)=O)CC(C)C)CC(C)C,preparative RP-HPLC C18,water to acetonitrile gradient,0.05% TFA in eluent,higher = more hydrophobic,acetonitrile at elution,68.1%
CN(C)CCCC1(c2ccc(F)cc2)OCc2cc(C#N)ccc21 (racemic),,"CD-1 mouse, pregnant E14 and E18, fetal and maternal serum","intraperitoneal, 20 mg/kg maternal",,time fetal exceeds maternal,2 h
O=C(O)[C@H](c1ccccc1Cl)N1CCc2sccc2C1,HPLC-MS/MS,feline EDTA plasma,"12 h, -80 °C, storage stability",,deviation from nominal,-4%
[2H]C([2H])([2H])Oc1cc2c(cc1OC([2H])([2H])[2H])C1CC(=O)C(CC(C)C)CN1CC2 (centres unmarked),refers to: deuterated β-HTBZ,"healthy human volunteers, plasma","oral, 24 mg single dose, standard meal",,dose-normalized AUC(0-t),5.7 ng·h/mL
Cn1c(=O)cc(N2CCC[C@@H](N)C2)n(Cc2ccccc2C#N)c1=O,,"male ICR mouse, liver","oral, 3 mg/kg, 24 h",,AUC,23900 ng·h/mL
COc1cc2c3c(n(CCCN4CCOCC4)c(=O)c2cc1OC)-c1cc2c(cc1C3=O)OCO2,,"patients, plasma","intravenous infusion, 40 mg/m^2 daily over 1 h, cycle 1 day 5",,AUC(0-24 h),8120 ng·h/mL
CCCCN1C(=O)C(CC(C)C)NC(=O)C12CCN(Cc1ccc(Oc3ccccc3)cc1)CC2.Cl (centres unmarked),,male rat,"oral, 30 mg/kg",,oral bioavailability,1.3%
Oc1ccc(C(c2ccc(O)cc2)(C(F)(F)F)C(F)(F)F)cc1,refers to: free compound,"Hsd:Sprague Dawley rat male, plasma","oral gavage, 340 mg/kg single dose",,elimination (k10) half-life,2.33 h
Cc1nc2cccc(OCC(C)(C)C(=O)NC(C)C)c2c(N)c1C(=O)O,,"male Sprague-Dawley rat, plasma","dietary, 60 mg/kg/day, day 7",,Tmax,0 h
Cc1cccc(C)c1OCC(=O)N[C@@H](Cc1ccccc1)[C@@H](O)C[C@H](Cc1ccccc1)NC(=O)[C@H](C(C)C)N1CCCNC1=O,median,"HIV patients without HCV, plasma","oral, dose not given, lopinavir/ritonavir 400/100 mg twice daily",,AUC(0-12 h),110000 ng·h/mL
CC[C@H](C)[C@@H]1NC(=O)[C@H](Cc2ccc(O)cc2)NC(=O)[C@@H](N)CSSC[C@@H](C(=O)N2CCC[C@H]2C(=O)N[C@@H](CC(C)C)C(=O)NCC(N)=O)NC(=O)[C@H](CC(N)=O)NC(=O)[C@H](CCC(N)=O)NC1=O,LC-MS,human urine,"9.9 to 385 ng/mL, immediately after addition, attributed to MS signal suppression",,level decrease after spiking,50 to 80%
CCC(CC)COC(=O)[C@H](C)N[P@](=O)(OC[C@H]1O[C@@](C#N)(c2ccc3c(N)ncnn23)[C@H](O)[C@@H]1O)Oc1ccccc1,,20% w/w aqueous SBECD,"24 h, pH 1.9, 25 °C, SBECD source 3",,equilibrium solubility,8550 µg/mL
C[C@]12CC[C@@H]3c4ccc(OS(=O)(=O)O)cc4CC[C@H]3[C@@H]1CCC2=O,,BME-UV cell monolayer,,,permeation rate constant,no effect
O=C(/C=C/c1ccc(O)c(O)c1)O[C@H](Cc1ccc(O)c(O)c1)C(=O)O,UPLC-MS/MS,"Wistar rat, microcirculation dysfunction model, plasma","oral, 100 mg/kg Salvia miltiorrhiza stem-leaf extract FT",,MRT(0-t),7.75 ± 2.04 h
CCCS(=O)(=O)Nc1ccc(F)c(C(=O)c2c[nH]c3ncc(-c4ccc(Cl)cc4)cc23)c1F,rapid equilibrium dialysis,100% human plasma,"150 µM, 4 h",,unbound fraction in incubation,9.4e-06 ± 2.7e-06
O=C1N=C(N2CCOCC2)CN1c1ccc(Cl)cc1,,"beagle dog, both sexes, plasma","oral, 30 mg/kg, tablets, fasted, day 5",,AUC(0-inf),70500 ng·h/mL
CCCC[C@H](NC(C)=O)C(=O)N[C@H]1CCC(=O)NC[C@@H](C(=O)N[C@@H](Cc2c[nH]c3ccccc23)C(N)=O)NC(=O)[C@H](CCCNC(=N)N)NC(=O)[C@@H](Cc2ccccc2)NC(=O)[C@H](Cc2c[nH]cn2)NC1=O,,"CD Sprague Dawley rat, female, plasma","subcutaneous, 1.0 mg/kg daily, day 1",,Vd/F,1.19 L/kg
N[C@]1(C(=O)O)[C@H]2[C@@H](C[C@@H]1F)[C@@H]2C(=O)O,,"healthy subjects, both sexes, CSF","oral, 10 mg TS-134 single dose, fed, mean",,AUC(0-24 h),18.9 ng·h/mL

# Excerpt of the above:
Substance,test,test system,conditions,scale,quantity,value
CCc1oc2ccc(OC)cc2c1C(=O)c1cc(Br)c(O)c(Br)c1,,"Sprague-Dawley rat, intestine microsomes","1 µM, pH 7.4, with: NADPH",,intrinsic clearance,6.5 ± 1.4 µL/min/mg
C[C@@H](O)[C@H](N)C(=O)O,,octanol/phosphate buffer,"pH 7.0, N-4-nitrobenzoyl amino acid derivatives",baseline: glycine derivative,Π (relative logD),0.07 ± 0.01
C[C@@H]1O[C@@H](OC[C@H]2O[C@@H](Oc3c(-c4ccc(O)c(O)c4)oc4cc(O)cc(O)c4c3=O)[C@H](O)[C@@H](O)[C@@H]2O)[C@H](O)[C@H](O)[C@H]1O,UPLC-MS/MS,"Wistar rat, microcirculation dysfunction model, plasma","oral, 100 mg/kg Salvia miltiorrhiza stem-leaf extract FT",,MRT(0-t),7.32 ± 0.77 h
Cc1cc(C(=O)NC(C)(C)COc2cccc3c2C(N)=NS(=O)(=O)N3)cc(C)n1,,"Sprague-Dawley rat, both sexes, plasma","oral, suspension in 1% methylcellulose",,oral bioavailability,0.15 to 0.43%
CO/N=C1\C[C@]2(C[C@@H]3C[C@@H](C/C=C(\C)C[C@@H](C)/C=C/C=C4\CO[C@@H]5[C@H](O)C(C)=C[C@@H](C(=O)O3)[C@]45O)O2)O[C@H](/C(C)=C/C(C)C)[C@H]1C,"HPLC, non-compartmental","Corriedale lambs, parasitized, plasma","subcutaneous, 0.2 mg/kg, with: closantel 5 mg/kg subcutaneous",,elimination half-life,103 h
O=C([O-])CN(CC(=O)[O-])CC(=O)[O-].[Fe+3],square wave voltammetry,metal chelate,"concentration not given, pH 7.4, anaerobic",,reduction potential vs NHE,464 mV
C=CC(=O)Nc1cc(Nc2ncc(C(=O)OC(C)C)c(-c3cn(C)c4ccccc34)n2)c(OC)cc1N(C)CCN(C)C,,"human, fasted","oral, 40 mg single dose, geometric mean",,AUC(0-t),155 ng·h/mL
Cn1c(-c2ccc(C(N)=O)cc2F)nnc1C(C)(C)Oc1c(F)cc(Cl)cc1F,,"young Japanese subjects, plasma","oral, 50 mg single dose, day 1",,AUC(0-inf) mean,7880 ng·h/mL
